Measurements pooled from the literature.
Parts stem from different laboratories: compare values within a part only.

Set 1
Target: Histone acetyltransferase KAT6A, both winged helices, GST fusion (KAT6A, Homo sapiens, UniProt Q92794, residues 1-181)
Technique: protein binding microarray
Form: double-stranded DNA, one strand shown
Matrix: in vitro
Concentration: not given
Setting: 8-mer, flanks averaged, mean of 2 arrays, mostly near background
Baseline: not given
Reading: higher = stronger binding
Measurement: E-score
Residues (chain): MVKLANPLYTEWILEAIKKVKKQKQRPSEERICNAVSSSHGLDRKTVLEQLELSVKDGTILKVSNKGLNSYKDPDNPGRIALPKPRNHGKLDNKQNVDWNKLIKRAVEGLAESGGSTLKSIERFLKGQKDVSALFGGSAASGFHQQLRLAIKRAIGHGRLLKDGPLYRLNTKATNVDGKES
AGTCCCGC: 0.186
CGATTATA: -0.0527
AAATTTAA: -0.0764
GAACGAAC: 0.098
GAAATCGA: 0.108
AACTTTCG: -0.0727
CAGGCGGG: 0.172
CTAGTGTC: -0.0566
ACACCCCT: -0.209
CCGAACGA: 0.0508
AAATATGG: -0.113
CTATCCAC: -0.0633
AGCCTTAT: -0.183
AACTCCCG: 0.179
GCATACCC: -0.0315

Set 2
Target: Interferon regulatory factor 3, full length, phosphomimetic (IRF3, Homo sapiens, UniProt Q14653, residues 1-427, S386D/S396D/S398D/S402D/T404D/S405D)
Technique: protein-binding microarray
Form: double-stranded DNA, one strand shown
Matrix: in vitro
Concentration: 2540 nM top
Setting: 60-bp whole probe
Added: salmon DNA 0.4 mg/ml
Baseline: random background probes
Reading: higher = stronger binding
Measurement: fitted relative affinity
Constant ends, left off below: GCCTAGCAC … GTCTTGATTCGCTTGACGCTGCTG
Target sequence (chain): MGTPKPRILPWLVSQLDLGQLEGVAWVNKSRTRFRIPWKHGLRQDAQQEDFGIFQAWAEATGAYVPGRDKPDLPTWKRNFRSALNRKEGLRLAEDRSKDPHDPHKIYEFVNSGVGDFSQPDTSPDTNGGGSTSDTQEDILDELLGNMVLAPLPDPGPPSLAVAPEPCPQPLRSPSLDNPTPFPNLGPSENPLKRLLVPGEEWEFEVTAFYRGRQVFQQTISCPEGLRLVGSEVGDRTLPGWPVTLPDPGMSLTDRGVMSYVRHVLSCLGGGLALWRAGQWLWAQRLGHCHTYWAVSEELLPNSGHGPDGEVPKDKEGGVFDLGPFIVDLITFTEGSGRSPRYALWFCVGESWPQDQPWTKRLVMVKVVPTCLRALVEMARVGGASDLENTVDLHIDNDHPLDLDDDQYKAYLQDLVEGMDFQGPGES
TGATCTCTGGTCTTTGTCAGGTGCTAG: 0.141 z-score
GAGTGGTTCTGCTTCTTAGCGTGCTAG: 0.574 z-score
TTAGGTTTCGGAGTGGGTTAGTGCTAG: 4.73 z-score
GAGGGTTTCGGTTTCGGGACGTGCTAG: 9.62 z-score
TCAAAACTCGTGTTTTTCACTGTGCTA: -0.311 z-score
ACCCATCTCAAGTAGCCTAGCGTGCTA: 1.6 z-score
GACGGTTTCGGGTTTCGGGGCGTGCTA: 5.74 z-score
GACGATATCAGTATCGAGAGGTGCTAG: 0.987 z-score
TCACCTCTGTAAGTCAGACTGTGCTAG: -0.0175 z-score
TTAGATATCGGGACTGGGTTAGTGCTA: -0.086 z-score
GACGGACTGGGGTTTCGGGCCGTGCTA: -0.339 z-score
GACGATCTCAGTCTCTAGACGTGCTAG: 0.881 z-score
TCATCTCTACATGTGTTACTGTGCTAG: 0.991 z-score
TTATGTCTCGGTTTCGGTTAGTGCTAG: 5.23 z-score

Set 3
Target: Sal-like protein 4, full length isoform B (SALL4, Homo sapiens, UniProt Q9UJQ4-2, residues 1-616)
Technique: universal PBM
Form: double-stranded DNA, one strand shown
Matrix: in vitro
Concentration: not given
Setting: 8-mer, flanks averaged, mean of replicates
Reading: higher = stronger binding
Measurement: E-score
Target sequence (chain): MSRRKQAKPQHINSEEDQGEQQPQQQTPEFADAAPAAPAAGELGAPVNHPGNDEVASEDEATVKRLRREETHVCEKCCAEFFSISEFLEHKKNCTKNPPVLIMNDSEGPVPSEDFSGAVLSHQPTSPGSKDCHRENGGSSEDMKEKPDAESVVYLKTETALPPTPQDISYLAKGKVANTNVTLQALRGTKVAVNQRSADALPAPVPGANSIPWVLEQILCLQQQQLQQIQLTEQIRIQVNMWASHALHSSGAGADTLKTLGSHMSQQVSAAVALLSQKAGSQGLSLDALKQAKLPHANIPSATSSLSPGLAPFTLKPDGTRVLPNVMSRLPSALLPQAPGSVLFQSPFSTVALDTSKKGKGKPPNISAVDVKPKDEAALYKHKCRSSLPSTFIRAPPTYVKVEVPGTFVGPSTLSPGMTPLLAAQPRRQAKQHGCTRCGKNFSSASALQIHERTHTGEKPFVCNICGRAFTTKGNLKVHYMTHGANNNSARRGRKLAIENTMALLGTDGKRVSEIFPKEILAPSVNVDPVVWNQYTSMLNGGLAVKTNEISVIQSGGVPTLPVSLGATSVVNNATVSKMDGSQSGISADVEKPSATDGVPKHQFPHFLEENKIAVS
CCGTTGTC: -0.0719
CATCGCGC: -0.231
CAACGGTA: -0.159
ACTCATTG: -0.00487
TGAATGAA: 0.233
CTAGGGAG: -0.216
CGGAAGTC: -0.225
ATCTTGCA: 0.236
ACAGGGCC: -0.238
ATTCGCAA: 0.211
CAATAAAA: 0.387
TATACAAA: 0.37
ACATTCAC: 0.135
TGTTGGAA: 0.131
GAAGTGGC: -0.16
CTTATGTA: 0.319
CTCGTACA: 0.00344

Single results of other studies
PhoQ, residues 284 288 289 292 302 303 SSCLAV
fold induction (PhoP, residues 12 14 15 18 19 QYCSL (Escherichia coli, UniProt P23836); Sort-seq, item: YFP reporter; E. coli; PhoQ-PhoP variant library, added: 10 µM Mg2+; baseline: high Mg2+ state, higher = stronger signaling): 15.6

Excerpt of the above (set 1):
GAAATCGA: 0.108
AACTTTCG: -0.0727
CAGGCGGG: 0.172
CTAGTGTC: -0.0566
ACACCCCT: -0.209
CCGAACGA: 0.0508
